Experimental data gathered from unrelated publications.
Route: oral

Structure (SMILES) | test | system | setting | tmax [h]
CN(C(=O)C(C)(C)c1cc(C(F)(F)F)cc(C(F)(F)F)c1)c1cnc(N2C[C@H]3COCCN3C[C@H]2CO)cc1-c1ccc(F)cc1[14CH3] | item: total radioactivity | human, plasma | 120 mg | 1.5
N#Cc1ccc2c(c1)[C@H]1CCCN(C(=O)c3ccc4[nH]cnc4c3)[C@H]1C2 | – | human, plasma | 80 mg once daily, after first dose, median | 1
COc1ccc(F)cc1C(=O)NCc1ccc(-c2nn([C@@H](C)C(F)(F)F)c(N)c2C(N)=O)cc1 | – | human, plasma | 200 mg once daily, together with: oral repaglinide | 1
C[C@H](O)c1cc(C(=O)N[C@@H](C)Cn2ccc(-c3ccc(C#N)c(Cl)c3)n2)n[nH]1 | – | human, fasted | 300 mg 14C-darolutamide solution, median | 3
O=C(COc1ccc(Cl)cc1)NC12CC(c3nnc([C@H]4C[C@@H](OC(F)(F)F)C4)o3)(C1)C2 | – | healthy human both sexes, plasma | 100 mg once daily, day 1, median fasted | 23.8
COc1cc(N2CCC(N3CCN(C)CC3)CC2)ccc1Nc1ncnc(Nc2ccccc2S(=O)(=O)C(C)C)n1 | – | human, plasma | 50 mg, day 1 | 2.12
CNC(=O)n1ccc2cc(Oc3ccnc(NC(=O)c4ccc(C5CCN(CCO)CC5)cc4)c3)c(OCCOC)cc21 | – | healthy human, plasma | 35 mg, median, alone | 4
O=C([O-])CCCCCCCNC(=O)c1ccccc1O.[Na+] | – | human | steady state | 0.7
CC(=O)c1cc(C(=O)N[C@@H](C)Cn2ccc(-c3ccc(C#N)c(Cl)c3)n2)[nH]n1 | – | human, fasted | 300 mg 14C-darolutamide solution, median | 1.5
CC[C@H](C)[C@H](NC(=O)[C@H](Cc1ccccc1)NC(=O)[C@H](CCC(=O)O)NC(=O)[C@H](CCCCNC(=O)COCCOCCNC(=O)COCCOCCNC(=O)CC[C@H](NC(=O)CCCCCCCCCCCCCCCCC(=O)O)C(=O)O)NC(=O)[C@H](C)NC(=O)[C@H](C)NC(=O)[C@H](CCC(N)=O)NC(=O)CNC(=O)[C@H](CCC(=O)O)NC(=O)[C@H](CC(C)C)NC(=O)[C@H](Cc1ccc(O)cc1)NC(=O)[C@H](CO)NC(=O)[C@H](CO)NC(=O)[C@@H](NC(=O)[C@H](CC(=O)O)NC(=O)[C@H](CO)NC(=O)[C@@H](NC(=O)[C@H](Cc1ccccc1)NC(=O)[C@@H](NC(=O)CNC(=O)[C@H](CCC(=O)O)NC(=O)C(C)(C)NC(=O)[C@@H](N)Cc1cnc[nH]1)[C@@H](C)O)[C@@H](C)O)C(C)C)C(=O)N[C@@H](C)C(=O)N[C@@H](Cc1c[nH]c2ccccc12)C(=O)N[C@@H](CC(C)C)C(=O)N[C@H](C(=O)N[C@@H](CCCNC(=N)N)C(=O)NCC(=O)N[C@@H](CCCNC(=N)N)C(=O)NCC(=O)O)C(C)C | – | human, plasma | 7 mg once daily, week 8, median | 1
Cc1ccc([C@@H]2O[C@H](CO)[C@@H](O)[C@H](O)[C@H]2O)cc1Cc1ccc(-c2ccc(F)cc2)s1 | – | human, maintenance hemodialysis patients | 300 mg once daily, steady state, median | 1.5
O=C(Nc1cnccc1Cl)N1CCN(Cc2ccc3c(c2)OC(F)(F)O3)CC1 | – | human healthy young men, plasma | 75 mg once daily, day 1, multiple dose median | 1.25
Cc1cc(Nc2ccc(S(F)(F)(F)(F)F)cc2)n2nc(C(C)(F)F)nc2n1 | LC-MS/MS | human vivax malaria patients, plasma | 800 mg, median | 10.1
